{"data": "Results collected from several papers", "note": "Every numbered part comes from another study and shows a few of its results, in no order."}
{"data": "Series 1", "target": "Interferon regulatory factor 7, full length, phosphomimetic (IRF7, Homo sapiens, UniProt Q92985, residues 1-503, S101K/S471D/S472D/S475D/S476D/S477D/S483D/S484D/S487D)", "method": "protein-binding microarray", "form": "double-stranded DNA, one strand shown", "sample": "in vitro", "tested at": "250 nM", "notes": "60-bp whole probe", "added": "salmon DNA 0.4 mg/ml", "reference": "random background probes", "reading": "higher = stronger binding", "all sequences stand within": "GCCTAGCAC … GTCTTGATTCGCTTGACGCTGCTG", "Residues (chain)": "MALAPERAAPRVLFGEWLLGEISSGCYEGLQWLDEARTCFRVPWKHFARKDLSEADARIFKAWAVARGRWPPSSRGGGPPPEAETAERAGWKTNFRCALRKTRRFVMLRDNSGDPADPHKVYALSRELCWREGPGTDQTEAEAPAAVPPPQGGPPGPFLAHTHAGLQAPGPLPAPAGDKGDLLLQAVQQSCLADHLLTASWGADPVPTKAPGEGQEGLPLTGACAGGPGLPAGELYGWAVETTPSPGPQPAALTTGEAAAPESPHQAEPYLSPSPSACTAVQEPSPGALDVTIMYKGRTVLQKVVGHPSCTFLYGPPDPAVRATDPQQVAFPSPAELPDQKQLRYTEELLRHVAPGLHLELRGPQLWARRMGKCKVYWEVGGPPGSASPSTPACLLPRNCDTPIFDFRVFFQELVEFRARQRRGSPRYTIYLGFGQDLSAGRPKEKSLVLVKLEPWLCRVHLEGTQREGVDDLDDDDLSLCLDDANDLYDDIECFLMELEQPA"}
{"Sequence": "GACGGTATCGGGACTGCGGACGTGCTA", "log fluorescence": "-0.41 z-score"}
{"Sequence": "TTAGGACTGATTATCCTTTAGTGCTAG", "log fluorescence": "-0.0579 z-score"}
{"Sequence": "ATATATATATATACAGATATGTGCTAG", "log fluorescence": "3.38 z-score"}
{"Sequence": "GTGTGTGTCTGATTATTTACGTGCTAG", "log fluorescence": "-0.133 z-score"}
{"Sequence": "GACGGTTTCCTTATGCTGACGTGCTAG", "log fluorescence": "2.8 z-score"}
{"Sequence": "TCTCTTTTCACTTTCTTTACGTGCTAG", "log fluorescence": "3 z-score"}
{"Sequence": "TGAGGACTGGGTTTCGGTTAGTGCTAG", "log fluorescence": "6.25 z-score"}
{"Sequence": "TAAGAAAAGCCACCAGGACCGTGCTAG", "log fluorescence": "-0.601 z-score"}
{"Sequence": "GGCGGTTTCGGGACTGGGGACGTGCTA", "log fluorescence": "3.66 z-score"}
{"Sequence": "GATGGTATCGGACTGGGGACGTGCTAG", "log fluorescence": "-0.245 z-score"}
{"Sequence": "TTAGATATCGGGTTACGATTAGTGCTA", "log fluorescence": "0.577 z-score"}
{"Sequence": "TTTGGTTTCGGGACTGGGTTAGTGCTA", "log fluorescence": "4.93 z-score"}
{"Sequence": "TTAGGTATCGGGGCTGGGTTAGTGCTA", "log fluorescence": "-0.135 z-score"}
{"Sequence": "TCCTATGTCATTTACATTTTGTGCTAG", "log fluorescence": "0.482 z-score"}
{"Sequence": "TCAGCTCTGCAGCTCAGACTGTGCTAG", "log fluorescence": "-0.803 z-score"}
{"Sequence": "GACGGACTGGGGATCGGGACGTGCTAG", "log fluorescence": "-0.48 z-score"}
{"Sequence": "TTAGGACCGCTACTGCTTTAGTGCTAG", "log fluorescence": "0.0326 z-score"}
{"Sequence": "GACGGTTTTGGTTTCGGGACGTGCTAG", "log fluorescence": "7.18 z-score"}
{"Sequence": "GATGGTCTCCTTCTCCTGACGTGCTAG", "log fluorescence": "-0.0296 z-score"}
{"data": "Series 2", "target": "Histone acetyltransferase KAT6A, both winged helices, GST fusion (KAT6A, Homo sapiens, UniProt Q92794, residues 1-181)", "method": "protein binding microarray", "form": "double-stranded DNA, one strand shown", "sample": "in vitro", "tested at": "not given", "notes": "8-mer, flanks averaged, mean of 2 arrays, mostly near background", "reference": "not given", "reading": "higher = stronger binding", "Target sequence (chain)": "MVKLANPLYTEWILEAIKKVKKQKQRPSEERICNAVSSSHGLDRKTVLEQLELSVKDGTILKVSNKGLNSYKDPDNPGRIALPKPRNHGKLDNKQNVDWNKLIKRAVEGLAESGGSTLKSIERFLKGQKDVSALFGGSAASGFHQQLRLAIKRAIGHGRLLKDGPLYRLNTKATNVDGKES"}
{"Sequence": "CGCAGAGA", "E-score": 0.135}
{"Sequence": "AACTAGTC", "E-score": -0.171}
{"Sequence": "ACCCTGCA", "E-score": -0.137}
{"Sequence": "ACTGCTGC", "E-score": -0.089}
{"Sequence": "GATGCGAC", "E-score": 0.271}
{"Sequence": "GTACCTGA", "E-score": -0.0134}
{"Sequence": "AGCAATGC", "E-score": -0.0702}
{"Sequence": "CCCTGTCA", "E-score": -0.179}
{"Sequence": "GCTTGTAA", "E-score": 0.0312}
{"Sequence": "ACCCTCCA", "E-score": -0.257}
{"Sequence": "ACCCCTTC", "E-score": -0.133}
{"Sequence": "AAACGCTC", "E-score": 0.142}
{"Sequence": "ACGCAGGG", "E-score": -0.0206}
{"Sequence": "CACCCACG", "E-score": 0.083}
{"Sequence": "CGAGCAAG", "E-score": -0.0892}
{"Sequence": "GAGCTCAA", "E-score": 0.0399}
{"Sequence": "ACCTGCGG", "E-score": 0.162}
{"Sequence": "AGCGTTGA", "E-score": 0.0244}
{"Sequence": "GAGACGGC", "E-score": 0.232}
{"Sequence": "ATAATTCG", "E-score": 0.00702}
{"Sequence": "ACCATTGA", "E-score": -0.118}
{"Sequence": "CCAGCCTA", "E-score": -0.127}
{"data": "Series 3", "target": "RING finger protein unkempt homolog, zinc fingers 1-6, GST-SBP tag (UNK, Homo sapiens, UniProt Q9C0B0, residues 30-357)", "method": "RNA Bind-n-Seq", "form": "RNA", "sample": "in vitro", "tested at": "not given", "notes": "RNA with constant flanks, human-mouse chimeric sites, ends assumed", "reference": "input RNA pool", "reading": "higher = stronger binding", "all sequences stand within": "GGGAGUUCUACAGUCCGACGAUC … CAACAGAGGAUUGAGCAUCA", "chain of UniProt Q9C0B0 (30-357, looked up)": "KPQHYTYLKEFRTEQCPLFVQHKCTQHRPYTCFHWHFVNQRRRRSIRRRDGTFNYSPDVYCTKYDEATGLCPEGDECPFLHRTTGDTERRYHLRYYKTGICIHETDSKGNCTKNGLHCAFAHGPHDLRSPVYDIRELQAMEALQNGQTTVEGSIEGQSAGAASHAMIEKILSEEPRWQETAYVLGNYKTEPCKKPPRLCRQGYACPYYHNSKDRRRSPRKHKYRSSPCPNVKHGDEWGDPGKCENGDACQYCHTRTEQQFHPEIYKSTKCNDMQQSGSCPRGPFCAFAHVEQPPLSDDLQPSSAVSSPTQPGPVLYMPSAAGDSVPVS"}
{"Sequence": "AAAGAACCUCUCUCUGAUGAAGAUGAGGAAGACAAUGAUGAUGUUGAACCCAUUUCUGAAUUUAGAUUUGUGCCCAGUGAUAAGUCAGCAUUGGAGGCGAUGUUCACUGCAAUGUGCGAG", "bound/input enrichment [ratio]": 2.59}
{"Sequence": "CCCUCCCGGGCCACCCAACCCCUCCCGGCUCCCCGCCGAGAUCCAGGUUUCUUCUGUUUUCAUAGCAAAUAAGAAAAAUGUUCUACGCACAUUUUGUCCUCAGUAAACGAGGGCCUCUGG", "bound/input enrichment [ratio]": 0.713}
{"Sequence": "GAGCCCAGCCGGCAGUUUGUAAAGGACUCAAUUCGGCUGGUUAAAAGAUGCACCAAACCCGACAGAAAAGAAUUCCAGAAGAUUGCCAUGGCAACAGCAAUAGGAUUUGCUAUCAUGGGA", "bound/input enrichment [ratio]": 0.117}
{"Sequence": "CUGUGUGUGCUGAAUAAAUGGCUUGUAAAGAAGUUUUUCCAAGCUGUAACCCAUGCUGUUAUUAUAGUUGCUGCAAAAUGUCUCUUAUGAUAUUGAUUUUAUUUGUUAACUGAAGGUCUC", "bound/input enrichment [ratio]": 0.425}
{"Sequence": "AACUUCGUGCAUCGGUUUCCCUUUGUAGCUGUUUCAAUUGGCUUUGCUGUGAAUAAAGAGAUGGAGUUUGGAGUUGUGUACAGCUGUGUGGAAGAUAAGAUGUACACCGGCAGGAAAGGG", "bound/input enrichment [ratio]": 0.586}
{"Sequence": "CUGUGACUGAUGGCAGCUACCUGAGUGGCAGCUGAAGUUGACUCCCUCUCCUUGCCUGAACCCCCCCCCACUGCCCCUUGAGUCCACAGUGUCGGCUGAGAUGUUGCCUCUGCACGGUUC", "bound/input enrichment [ratio]": 0.509}
{"Sequence": "CUUUUUGAAUCAUUCAAGAGUUUUGAAGGUCUCUUUUAUUUUCUGGGGUCCAUUGUUAACUUUAGUCAGGACCCAGAUGUGCACUUUAAAUAUAUUCAGGCGGCUUGCAAGACUGGGCAA", "bound/input enrichment [ratio]": 0.741}
{"Sequence": "GGUGGGGUGGUCAUUGCCGUUUGAGCUGCUGAUUUUCAUGAGUCGCCUUCAAAACUCUCGUGUAGGGUUGACAAUGUGGGGGGGUGGGAAAUCUAGCUUAUUCUUUUUCCCCAGCCCCCA", "bound/input enrichment [ratio]": 19.8}
{"data": "Series 4", "target": "Prothrombin, mature alpha-thrombin (F2, Homo sapiens, UniProt P00734)", "method": "aptamer microarray, sandwich", "form": "DNA with 2'F-ANA", "sample": "in vitro", "tested at": "200 nM", "notes": "whole 15-mer aptamer, many near background", "added": "Cy3 exosite-II aptamer, 400 nM", "reading": "higher = stronger binding", "sequence": "GGTTGGTGTGGTTGG"}
{"Modification": "2'F-ANA at 4 5 6 7 8 10 11 13 15", "mean fluorescence intensity": "54 a.u."}
{"Modification": "2'F-ANA at 2 3 5 7 10 11 14 15", "mean fluorescence intensity": "71 a.u."}
{"Modification": "2'F-ANA at 2 5 6 9 11 12 13 15", "mean fluorescence intensity": "75.6 a.u."}
{"Modification": "2'F-ANA at 2 3 4 6 8 11 12 15", "mean fluorescence intensity": "650 a.u."}
{"Modification": "2'F-ANA at 1 3 5 8 9 11", "mean fluorescence intensity": "58.7 a.u."}
{"Modification": "2'F-ANA at 3 4 13 14", "mean fluorescence intensity": "346 a.u."}
{"Modification": "2'F-ANA at 2 3 8 11 12 14", "mean fluorescence intensity": "485 a.u."}
{"Modification": "2'F-ANA at 2 3 8 9 11 12 13 14 15", "mean fluorescence intensity": "451 a.u."}
{"Modification": "2'F-ANA at 2 3 4 5 6 9 11 13 14", "mean fluorescence intensity": "49.2 a.u."}
{"Modification": "2'F-ANA at 1 2 3 5 6 8 9 12 13 15", "mean fluorescence intensity": "119 a.u."}
{"Modification": "2'F-ANA at 1 4 8 11 12 15", "mean fluorescence intensity": "252 a.u."}
{"Modification": "2'F-ANA at 3 4 7 11 13 14", "mean fluorescence intensity": "415 a.u."}
{"Modification": "2'F-ANA at 4 5 7 9 11 12 13 15", "mean fluorescence intensity": "67.6 a.u."}
{"Modification": "2'F-ANA at 1 4 5 7 9 10 11 13 14", "mean fluorescence intensity": "73.4 a.u."}
{"Modification": "2'F-ANA at 1 5 7 8 9 10 11 12 13 14", "mean fluorescence intensity": "64.8 a.u."}
{"Modification": "2'F-ANA at 1 4 5 7 8 11", "mean fluorescence intensity": "54 a.u."}
{"Modification": "2'F-ANA at 1 2 4 5 7 8 9 10 12", "mean fluorescence intensity": "102 a.u."}
{"Modification": "2'F-ANA at 1 2 5 7 8 10 11 12 13 15", "mean fluorescence intensity": "48.3 a.u."}
{"Modification": "2'F-ANA at 1 2 3 5 8 10 11 12 13", "mean fluorescence intensity": "50.3 a.u."}
{"Modification": "2'F-ANA at 1 3 4 6 7 13 14", "mean fluorescence intensity": "84.5 a.u."}
{"Modification": "2'F-ANA at 2 7 14 15", "mean fluorescence intensity": "142 a.u."}
{"Modification": "2'F-ANA at 2 6 7 8 10 12 14 15", "mean fluorescence intensity": "88.2 a.u."}
{"Modification": "2'F-ANA at 1 2 3 5 9 10 13 15", "mean fluorescence intensity": "48.4 a.u."}
{"Modification": "2'F-ANA at 1 4 5 10 12 13 14", "mean fluorescence intensity": "73.9 a.u."}
{"Modification": "2'F-ANA at 1 2 7 10 11", "mean fluorescence intensity": "49.6 a.u."}
{"note": "For quick reference, copied from above (series 2):"}
{"Sequence": "CGCAGAGA", "E-score": 0.135}
{"Sequence": "GAGCTCAA", "E-score": 0.0399}
{"Sequence": "ACCCTCCA", "E-score": -0.257}
{"Sequence": "AGCGTTGA", "E-score": 0.0244}
{"Sequence": "ATAATTCG", "E-score": 0.00702}
{"Sequence": "CCAGCCTA", "E-score": -0.127}
